Assay results pooled from the literature.
“And” joins repeats or separate records; there may be more than shown. Numbers after ± are the reported error.
Sequence of UniProt P15056 (whole entry, looked up): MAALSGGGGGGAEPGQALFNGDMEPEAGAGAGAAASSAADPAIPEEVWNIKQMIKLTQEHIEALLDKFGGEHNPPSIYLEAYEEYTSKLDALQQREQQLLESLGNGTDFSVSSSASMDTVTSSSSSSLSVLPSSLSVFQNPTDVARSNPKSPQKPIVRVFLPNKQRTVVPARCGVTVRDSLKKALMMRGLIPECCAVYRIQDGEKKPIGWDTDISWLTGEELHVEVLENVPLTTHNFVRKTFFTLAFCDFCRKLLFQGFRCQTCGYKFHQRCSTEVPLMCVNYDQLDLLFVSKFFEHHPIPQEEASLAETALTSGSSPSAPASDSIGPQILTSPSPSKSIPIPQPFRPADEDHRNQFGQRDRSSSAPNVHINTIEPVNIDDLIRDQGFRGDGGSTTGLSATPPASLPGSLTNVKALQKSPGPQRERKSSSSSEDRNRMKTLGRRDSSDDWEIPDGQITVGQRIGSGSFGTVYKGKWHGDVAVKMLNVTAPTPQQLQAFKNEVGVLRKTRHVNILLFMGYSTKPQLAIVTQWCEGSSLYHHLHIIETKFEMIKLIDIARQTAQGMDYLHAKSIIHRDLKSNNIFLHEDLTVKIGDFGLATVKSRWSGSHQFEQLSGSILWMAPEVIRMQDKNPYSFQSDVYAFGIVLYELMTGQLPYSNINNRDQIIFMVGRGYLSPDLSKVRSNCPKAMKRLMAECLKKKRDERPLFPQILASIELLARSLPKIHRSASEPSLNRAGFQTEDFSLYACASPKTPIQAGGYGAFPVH

For `CN1CCCNC(=O)c2cccc(c2)C(=O)NCCCN(C)CCCNc2cccc3c2C(=O)c2cccc(c2C3=O)NCCC1`, “log2 fold change” read 1.43 (SAS; RNA-Seq, item: THNSL1 mRNA; 1 µM, 6 h; reference: untreated cells).
The ΔTm of `O=C(N/N=C/c1ccc2c(ccc[n+]2Cc2ccccc2)c1)c1cc(C(=O)N/N=C/c2ccc3c(ccc[n+]3Cc3ccccc3)c2)ncn1` is reported as 1 ± 0.6 °C (hp2 hairpin duplex DNA; FRET melting; 1 µM, with: ds26 10 µM).
Under “log2 fold change”, `COC1CN([C@H]2CC[C@H]([C@@]3(C)Oc4c(Cl)cc(C(=O)NCc5c(SC)cc(C)[nH]c5=O)c(C)c4O3)CC2)C1` is recorded as 2.31 (RNA-seq, item: COL4A2; human, whole blood; dose not given, 24 h; reference: pretreatment baseline).
`C=C1CC[C@H](OCCCNC(=O)CCOCCOCCOCCOCCOCCOCCOCCOCCOCCOCCOCCOCCOCCOCCOCCOCCOCCOCCOCCOCCOCCOCCOCCOCCOCCOCCOCCOCCOCCOCCOCCOCCOCCOCCOCCOCCNC(=O)CCN2C(=O)CC(SC[C@H](NC(=O)[C@H](Cc3ccccc3)NC(=O)[C@H](CC(N)=O)NC(=O)[C@H](Cc3c[nH]cn3)NC(=O)[C@@H](NC(=O)[C@H](CC(=O)O)NC(=O)[C@H](CCC(N)=O)NC(=O)[C@H](CC(C)C)NC(=O)[C@H](CCCCN)NC(=O)[C@H](CCCCN)NC(=O)[C@H](CCCNC(=N)N)NC(=O)[C@H](CC(C)C)NC(=O)[C@H](Cc3c[nH]c4ccccc34)NC(=O)[C@H](CCC(=O)O)NC(=O)[C@@H](NC(=O)[C@H](CCCNC(=N)N)NC(=O)[C@H](CCC(=O)O)NC(=O)[C@H](CCSC)NC(=O)[C@H](CO)NC(=O)[C@H](CC(N)=O)NC(=O)[C@H](CC(C)C)NC(=O)[C@H](Cc3c[nH]cn3)NC(=O)[C@H](CCCCN)NC(=O)CNC(=O)[C@H](CC(C)C)NC(=O)[C@H](CC(N)=O)NC(=O)[C@H](Cc3c[nH]cn3)NC(=O)[C@H](CCSC)NC(=O)[C@H](CC(C)C)NC(=O)[C@H](CCC(N)=O)NC(=O)[C@@H](NC(=O)[C@H](CCC(=O)O)NC(=O)[C@H](CO)NC(=O)[C@@H](NC(=O)[C@@H](N)CO)C(C)C)[C@@H](C)CC)C(C)C)C(C)C)C(=O)O)C2=O)C/C1=C/C=C1\CCC[C@]2(C)[C@@H]([C@H](C)CCCC(C)(C)O)CC[C@@H]12` (stereo partly shown) gave a Tmax of 6 h (male cynomolgus monkey, plasma; subcutaneous, 0.07 mg/kg, single dose).
For `COc1ccc(NC(=O)CSc2nc3c(oc4ccccc43)c(=O)n2Cc2ccco2)cc1Cl`, the EC50 was 10 µM (Mus musculus; gene silencing, high-content imaging; LDR reporter GFP cells; retest, mean of two runs).
The EC50 of `CC(C)(C)c1cc(-c2ccc3cccnc3n2)nc(-c2ccc3cccnc3n2)c1.[Cl-].[Cl-].[Ru+2].c1cnc2c(c1)ccc1cccnc12` is reported as 152 ± 3 µM (A-375; resazurin; with: light 633 nm, 20 mW, 100 J/cm2).
With `CCCC[C@H](NC(=O)COCCOCCNC(=O)CN1CCN(CC(=O)O)CCN(CC(=O)O)CC1)C(=O)N[C@H]1CC(=O)NCCCC[C@@H](C(N)=O)NC(=O)[C@H](Cc2c[nH]c3ccccc23)NC(=O)[C@H](CCCNC(=N)N)NC(=O)[C@@H](Cc2ccccc2)NC(=O)[C@H](Cc2c[nH]cn2)NC1=O` [technetium-99m labelled] the tissue uptake was 0.06 ± 0.02 %ID/g (C57 mouse, bone; intravenous, 0.037 MBq, 4 h).
`COC1OC(C)C(O)C(OC2OC(C)C(O)C(OC3OC(C)C(O)C(OC4OC(C)C(O)C(OC5OC(C)C(O)C(OC6OC(C)C(O)C(OC7OC(C)C(O)C(OC8OC(C)C(O)C(OC9OC(C)C(O)C(OC%10OC(C)C(O)C(OC%11OC(C)C(O)C(OC%12OC(C)C(O)C(OS(=O)(=O)O)C%12OS(=O)(=O)O)C%11OS(=O)(=O)O)C%10OS(=O)(=O)O)C9OS(=O)(=O)O)C8OS(=O)(=O)O)C7OS(=O)(=O)O)C6OS(=O)(=O)O)C5OS(=O)(=O)O)C4OS(=O)(=O)O)C3OS(=O)(=O)O)C2OS(=O)(=O)O)C1OS(=O)(=O)O` (stereo not shown): “prothrombin time prolongation” 0.96 fold (human plasma; 128 µg/mL; reference: control).
`Cc1nn(-c2cccc(N)c2)c(=O)c2cnc(Nc3ccc(N4CCNCC4)cc3)nc12` gave an IC50 of over 10 µM (BRAF (Homo sapiens, UniProt P15056); enzyme activity, inhibitor).
For `CNS(=O)(=O)Nc1nccc(Cc2c(C)c3ccc(Oc4ncccc4F)cc3oc2=O)c1F`, the IC50 was 0.0289 µM (NCI-H322; cell viability; 7 days).
`CC[n+]1cccc2cc(/C=N/NC(=O)c3cccc(C(=O)N/N=C/c4ccc5c(ccc[n+]5CC)c4)c3)ccc21` has a ΔTm of 0.8 ± 0.1 °C (hp2 hairpin duplex DNA; FRET melting; 1 µM, with: ds26 10 µM).
`c1ccc(-c2n[nH]cc2-c2ccnc3ccccc23)nc1`: “log2 fold change” -0.06 (SHA3 (Candida albicans); kinase binding, MIB/MS competition; Candida albicans lysate; 1 µM; reference: DMSO).
With `C=CC(=O)N1[C@@H](c2ccc3c(c2)OCO3)c2[nH]c3ccccc3c2C[C@H]1C(=O)N1CCN(C)CC1` the relative co-enrichment was 107% (human cyclin E1 N112C-3xFLAG:CDK2; co-IP with TMT proteomics, item: DDX17; concentration not given, Q92841; reference: wild type DMSO).
`Cc1ncsc1-c1ccc(C(C)NC(=O)C2CC(O)CN2C(=O)C(NC(=O)CCCCCCCCCCN2CCCC(Nc3ncc(Cl)c(Nc4ccccc4S(=O)(=O)C(C)C)n3)C2)C(C)(C)C)cc1` (stereo not shown) — result for “log2 fold change”: -2.3 (22Rv1; RNA-seq, item: RHBDF2 mRNA; concentration not given; reference: DMSO).
`COC1OC(C)C(O)C(OC2OC(C)C(O)C(OC3OC(C)C(O)C(OC4OC(C)C(O)C(OC5OC(C)C(O)C(OS(=O)(=O)O)C5OS(=O)(=O)O)C4OS(=O)(=O)O)C3OS(=O)(=O)O)C2OS(=O)(=O)O)C1OS(=O)(=O)O` (stereo not shown): “prothrombin time prolongation” 0.98 fold (human plasma; 128 µg/mL; reference: control).
For `O=C(N/N=C/c1ccccn1)c1cc(-c2ccc(Cl)cc2)nc2ccccc12`, the Emax was 30% (Mus musculus; gene silencing, high-content imaging; LDR reporter GFP cells; 30 h, retest run 1).
With `C[n+]1cccc2cc(/C=N/NC(=O)C(=O)N/N=C/c3ccc4c(ccc[n+]4C)c3)ccc21` the ΔTm was 3.6 ± 0.5 °C (MYC parallel G4 DNA; FRET melting; 1 µM, DNA 0.2 µM, with: duplex DNA competitor 10 µM).
For `CCN(CC)CC(=O)Nc1cccc(-n2cc(-c3ccc4ccc(-c5cn(-c6cccc(NC(=O)CN(CC)CC)c6)nn5)cc4c3)nn2)c1`, the fold regulation was -1.35 (RCC4; PCR angiogenesis array, item: NRP2; 5 x IC50, 4 h, normoxia; reference: untreated).
`C=CC(=O)Nc1cccc(Cn2ncc3cnc(Nc4cnn(CCOC)c4)nc32)c1`: “percent of control” 100% (CSNK1A1L human; binding, KINOMEscan; 100 nM; lower = stronger binding).
For `Nc1ncc(-c2cc(-c3cnn(CC(F)(F)F)c3)ncc2F)nc1C(=O)NC1CNCC(F)C1` (stereo not shown), the remaining binding was 100% (CDC2L5; KINOMEscan; 1 µM; reference: DMSO control).
With `O=C(CSc1cccc[n+]1[O-])c1ccccc1Br` the AC50 was 10 µM (Mus musculus; gene silencing, high-content imaging; LDR reporter GFP cells; retest run 2).
`O=C(N/N=C/c1cc[n+](CC2CC2)c2ccccc12)c1cccc(C(=O)N/N=C/c2cc[n+](CC3CC3)c3ccccc23)c1` gave a ΔTm of 6.2 ± 0.2 °C (MYC parallel G4 DNA; FRET melting; 1 µM, DNA 0.2 µM, with: duplex DNA competitor 10 µM).
`Cc1ccc(/C=N/N=C(\S)Nc2cccc(S(=O)(=O)N(C)C)c2)o1` has an Emax of 34% (Mus musculus; gene silencing, high-content imaging; LDR reporter GFP cells; 30 h, confirmation, mean of two runs).
`CC(C)C[C@H](NC(=O)[C@@H](CCCCNC(=O)[C@@H](Cc1ccccc1)NC(=O)CCCCCNC(=O)CN1CCN(CC(=O)O)CCN(CC(=O)O)CCN(CC(=O)O)CC1)NC(=O)[C@H](Cc1ccc(O)cc1)NC(=O)[C@H](CO)NC(=O)[C@H](Cc1c[nH]c2ccccc12)NC(=O)[C@H](Cc1c[nH]cn1)NC(=O)[C@@H]1CCC(=O)N1)C(=O)N[C@@H](CCCNC(=N)N)C(=O)N1CCC[C@H]1C(=O)NCC(N)=O` [indium-111 labelled] has a tissue uptake of 0.02 ± 0.02 %ID/g (female athymic nude mice, muscle; intravenous, 0.037 MBq, 4 h).
For `CCC(=O)N1CCN(c2ccc(NC(=O)c3ccc([N+](=O)[O-])o3)cc2Cl)CC1`, the EC50 was 1.26 µM (Mus musculus; gene silencing, high-content imaging; LDR reporter GFP cells; retest, mean of two runs).
`CC(C)C[C@H](NC(=O)[C@H](CC(=O)O)NC(=O)CNC(=O)[C@@H](N)CCCNC(=N)N)C(=O)N[C@@H](C)C(=O)N[C@H](C(=O)N[C@@H](CC(C)C)C(=O)N[C@@H](CCCNC(=N)N)C(=O)N[C@@H](CCC(N)=O)C(=O)N[C@@H](CC(C)C)C(=O)N[C@@H](C)C(=O)N[C@@H](CCC(N)=O)C(=O)N[C@@H](CCC(=O)O)C(=O)N[C@@H](CC(=O)O)C(=O)NCC(=O)N[C@H](C(=O)N[C@H](C(=O)NCC(=O)N[C@H](C(=O)N[C@@H](CCCNC(=N)N)C(=O)NCCOCCOCCOCCOCCOCCOCCOCCOCCOCCOCCOCCOCCC(=O)N[C@@H](CS)C(N)=O)C(C)C)C(C)C)C(C)C)[C@@H](C)O` — result for “fluorescence signal ratio”: 0.069 and 0.005 (ex vivo NIR imaging; NOD/SCID mice, xenograft, H460 xenograft; intravenous, 30 µg, 24 h; reference: liver).
`O=C(N/N=C/c1cc[n+](CC2CC2)c2ccccc12)c1cccc(C(=O)N/N=C/c2cc[n+](CC3CC3)c3ccccc23)n1` gave a ΔTm of 15.1 ± 0.4 °C (MYC parallel G4 DNA; FRET melting; 1 µM, DNA 0.2 µM).
With `CCCC(=O)N1CCN(c2ccc(NC(=O)c3ccc([N+](=O)[O-])o3)cc2Cl)CC1` the Emax was 39% (Mus musculus; gene silencing, high-content imaging; LDR reporter GFP cells; 30 h, retest, mean of two runs).
`C[n+]1cccc2cc(/C=N/NC(=O)N/N=C/c3ccc4c(ccc[n+]4C)c3)ccc21` gave a ΔTm of 3.9 ± 0.2 °C (MYC parallel G4 DNA; FRET melting; 1 µM, DNA 0.2 µM, with: duplex DNA competitor 10 µM).
`Oc1c(/N=N/c2ccccn2)ccc2ccccc12` has an AC50 of 31.6 µM (Mus musculus; gene silencing, high-content imaging; LDR reporter GFP cells; retest run 2).
With `O=C(N/N=C/c1ccc2c(ccc[n+]2Cc2ccccc2)c1)c1ccc2ccc3ccc(C(=O)N/N=C/c4ccc5c(ccc[n+]5Cc5ccccc5)c4)nc3c2n1` the ΔTm was 0.5 ± 0.4 °C (hp2 hairpin duplex DNA; FRET melting; 1 µM, with: ds26 10 µM).
`COC1OC(C)C(OC2OC(C)C(O)C(OC3OC(C)C(OC4OC(C)C(O)C(OC5OC(C)C(OC6OC(C)C(O)C(OS(=O)(=O)O)C6OS(=O)(=O)O)C(OS(=O)(=O)O)C5OS(=O)(=O)O)C4OS(=O)(=O)O)C(OS(=O)(=O)O)C3OS(=O)(=O)O)C2OS(=O)(=O)O)C(OS(=O)(=O)O)C1OS(=O)(=O)O` (stereo not shown) has a prothrombin time of 14.9 ± 0.5 s (human plasma; 128 µg/mL).
For `C(=N\Nc1nc(-c2ccccn2)nc2ccccc12)/c1ccccc1`, the Emax was 130% (Mus musculus; gene silencing, high-content imaging; LDR reporter GFP cells; 30 h, retest run 1).
For `C[n+]1cccc2cc(/C=N/NC(=O)c3cncc(C(=O)N/N=C/c4ccc5c(ccc[n+]5C)c4)n3)ccc21`, the ΔTm was 9 ± 0.3 °C (MYC parallel G4 DNA; FRET melting; 1 µM, DNA 0.2 µM).

Excerpt of the above:
`C[n+]1cccc2cc(/C=N/NC(=O)N/N=C/c3ccc4c(ccc[n+]4C)c3)ccc21` gave a ΔTm of 3.9 ± 0.2 °C (MYC parallel G4 DNA; FRET melting; 1 µM, DNA 0.2 µM, with: duplex DNA competitor 10 µM).
With `O=C(N/N=C/c1ccc2c(ccc[n+]2Cc2ccccc2)c1)c1ccc2ccc3ccc(C(=O)N/N=C/c4ccc5c(ccc[n+]5Cc5ccccc5)c4)nc3c2n1` the ΔTm was 0.5 ± 0.4 °C (hp2 hairpin duplex DNA; FRET melting; 1 µM, with: ds26 10 µM).
With `C[n+]1cccc2cc(/C=N/NC(=O)C(=O)N/N=C/c3ccc4c(ccc[n+]4C)c3)ccc21` the ΔTm was 3.6 ± 0.5 °C (MYC parallel G4 DNA; FRET melting; 1 µM, DNA 0.2 µM, with: duplex DNA competitor 10 µM).
With `O=C(CSc1cccc[n+]1[O-])c1ccccc1Br` the AC50 was 10 µM (Mus musculus; gene silencing, high-content imaging; LDR reporter GFP cells; retest run 2).
For `O=C(N/N=C/c1ccccn1)c1cc(-c2ccc(Cl)cc2)nc2ccccc12`, the Emax was 30% (Mus musculus; gene silencing, high-content imaging; LDR reporter GFP cells; 30 h, retest run 1).
